Results collected from several papers.
Parts stem from different laboratories: compare values within a part only.

Study 1 — technique: RNA Bind-n-Seq; molecule type: RNA; matrix: in vitro; concentration: 200 nM; setting: whole 134-nt RNA, ends assumed; with: 150 mM KCl; relative to: input library; reading: higher = stronger binding
Target: Fragile X messenger ribonucleoprotein 1, C-terminal low-complexity region (Fmr1, Mus musculus, UniProt P35922)
All sequences stand within: GGGAGUUCUACAGUCCGACGAUC … UGGAAUUCUCGGGUGUCAAGG
| Oligonucleotide | log2 enrichment |
| --- | --- |
| UAUGCCACGCCCUUUGAGGACUCGAAGAUCAUGGUCUCUGACUUUGGACUCUCCAAAAUCCAGGCUGGGAACAUGCUAGGCACCGCCUGU | 0.176 |
| UGGCCCUGGUGGCAUGCGGGGAGGAAGAGGUGGCCUCAUGGAUCGUGGUGAUCCCGGUGGAAUGUUCAGAGGUGGCCGUGGUGGAGACAG | -0.0945 |
| CAAGUCCUGUGCUACACAUCGUAUGUACCGAAUCGGUUUUUGGAAAAAAAGGAGGAAAGUAUUAUGUUACGCCGUUCGGAUCUGCACUUC | -0.692 |
| CAAGUCCUGUGCUACACAUCGUAUGUACCGAAUCGGGCCCGGGCCCGGGCCCGGGAAAGUAUUAUGUUACGCCGUUCGGAUCUGCACUUC | -0.518 |
| AGUCCUGUGCUACACAUCGUAUGUACCGAAUCGGGAAAAAGGGUUUUUGGGAAAGGGAAAGUAUUAUGUUACGCCGUUCGGAUCUGCACU | -0.0445 |
| UCCUGUGCUACACAUCGUAUGUACCGAAUCGGGGAAAAAGGGAAAAAGGGGAAAAAGGGAAAGUAUUAUGUUACGCCGUUCGGAUCUGCA | -0.00693 |
| AAAAUUUCCAGUACCUUUGUCACAAUCCUAACACAUUAUCGGGAGCAGUGUCUUCCAUAAUGUAUAAAGAACAAGGUAGUUUUUACCUAC | -0.513 |
| CAAGUCCUGUGCUACACAUCGUAUGUACCGAAUCGGAAAAAAAGGUGGUUUUUGGAAAGUAUUAUGUUACGCCGUUCGGAUCUGCACUUC | -0.743 |
| UGGCCUGCACAUUCAGCUGCAUGAUGAAGUUCACUGUCAAGGACUGUGAUCCCACCACUGGGGAGACUGAUGACGAAGGCUAUGAGGAUG | -0.0905 |
| GUCCUGUGCUACACAUCGUAUGUACCGAAUCGGGAAAAAGGGUUUUUGGGAAAAAGGGAAAGUAUUAUGUUACGCCGUUCGGAUCUGCAC | -0.485 |
| CCUGUGCUACACAUCGUAUGUACCGAAUCAAAUUUUUAAAUUUUUUUAAAUUUUUUUAAAAAAGUAUUAUGUUACGCCGUUCGGAUCUGC | -0.97 |
| UGGCUUCCUUCUUUCUAUUCCCCGCCUGCCUUCCAUGGUAGAGGCCAGUGACUUUGAGAUUAAUGGACUGGACUUCAUGGUAAGACCCUC | 0.26 |
| CUGUGCUACACAUCGUAUGUACCGAAUCGGGGUUUUUUUGGUUUUUUUGGGGUUUUUUUGGGAAAGUAUUAUGUUACGCCGUUCGGAUCU | -0.281 |
| UGCGGGACAAAGAAGUGGCCAAUCGAUACUUUACCACUGUCUGUGUGAGAUUACUGCUUGAGAGCAAAGAAAAGAAGAUCAGGGAAUUCA | 0.385 |

Study 2 — technique: protein-binding microarray; molecule type: double-stranded DNA, one strand shown; matrix: in vitro; concentration: 0.8 µM; setting: whole 60-bp probe, no competitor; reading: higher = stronger binding; all sequences stand within: … GTCTTGATTCGCTTGACGCTGCTG
Target: Centromere-binding protein 1, full length, N-terminal tag (CBF1, Saccharomyces cerevisiae, UniProt P17106, residues 1-351)
UniProt P17106, sequence (whole entry, looked up): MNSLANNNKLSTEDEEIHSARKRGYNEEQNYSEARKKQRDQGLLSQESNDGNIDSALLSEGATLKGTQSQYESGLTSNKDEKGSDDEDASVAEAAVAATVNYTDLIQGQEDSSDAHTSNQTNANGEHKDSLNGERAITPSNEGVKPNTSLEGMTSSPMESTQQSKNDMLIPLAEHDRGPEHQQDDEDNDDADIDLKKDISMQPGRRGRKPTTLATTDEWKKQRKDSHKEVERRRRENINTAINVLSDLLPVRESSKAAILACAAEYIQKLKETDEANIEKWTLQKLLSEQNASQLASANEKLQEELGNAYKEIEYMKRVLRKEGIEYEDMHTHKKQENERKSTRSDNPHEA
| Oligonucleotide | fluorescence intensity [a.u.] |
| --- | --- |
| CTAATAACTTCCATTCGGGTGATACCTGCAATATTC | 543 |
| GAAGATATGAAACTACACGTTCAGTCATATGAATAG | 581 |
| GAAATATGTAGTAATCACGTATGCAGACATTAATAG | 613 |
| CTACAGTAGCAACAACACGTTTTCTTGGATGATTTC | 586 |
| GAATTTCAGGCTTTGAACGTGATTTTCCCAAACTAG | 726 |
| CTACGAGAAACTGGGCGTGTGTGCTAACCAAGATTC | 529 |
| GAAGAGCTAAAAAGTCACGTATGTAGTGCTAATTAG | 658 |
| GAACTTCATTTTCTTCACGCGCCATACTCGGATTAG | 625 |
| GAATCCGTTGAAAATAGCGTGGTGAATGGTAAATAG | 553 |
| CTAGAGCAGATAAGTCATGAGGCTAAGAAAGATTTC | 631 |
| GAAGGTAAAAAAAGTGATGTCAGACCAAAGTGCTAG | 533 |
| CCTAACTACTATAGCCAGGTGATATAGCTTCGTACA | 650 |
| GAATAATAGCGTCGTTACGTCACATATGGTCAGTAG | 580 |
| CCTAACTACTATATAATCGTGATATAGCTTCGTACA | 607 |
| GAACGGCAAAACGTCAACACCACCTCTACATTTTAG | 504 |
| CTAAATAAATAAAATCATCAGAATCATTCGTAATTC | 468 |
| CTAATAGTAGATCAACTCGTGCTCTGCTGGCTATTC | 568 |
| GAATAATGAAAGAATCACGGCACGTTACTAATTTAG | 1230 |
| GAACATAGTATATGTAACATCAATGATGCTGGGTAG | 519 |
| CTAATGAAGAAAGATCAGGAGAAAAATTTTTTTTTC | 513 |
| GAAAGAGAACATGATCACGATACACGACTAGCGTAG | 1610 |
| GAATGCGTGGTTCGTCACCTTAGGATAATATCGTAG | 540 |
| CTATTCTTTTAGTAAACCGTCACGTGCAAGAGATTC | 17800 |
| TGTACGAAGCTATATGGCATGACTATAGTAGTTAGG | 541 |
| GAAATAATTAATTGGCATGCGACCTTGTTATTGTAG | 645 |

Study 3 — technique: RNA Bind-n-Seq; molecule type: RNA; matrix: in vitro; concentration: 365 nM; relative to: no-protein control; reading: higher = stronger binding
Target: RNA binding protein fox-1 homolog 2, RRM domain, GST-SBP tag (RBFOX2, Homo sapiens, UniProt O43251-10, residues 100-194)
Setting: natural RNA segment, single round, ends assumed
All sequences stand within: GGGAGUUCUACAGUCCGACGAUC … UGGAAUUCUCGGGUGCCAA
Target sequence (chain): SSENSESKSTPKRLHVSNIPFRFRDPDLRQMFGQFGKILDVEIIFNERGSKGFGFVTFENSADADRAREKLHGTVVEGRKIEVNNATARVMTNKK
| Oligonucleotide | RBNS enrichment (R) |
| --- | --- |
| GAGAAACAAAGUCUACUGUGUAUUUGACAGCUAUUUAUCACCAAGACAACUGUAAAGAAAUCAAGCUGGCUGACUGUAUGAUUGCUAUUUACUUAAAGUUGACAACGUUA | 0.42 |
| CACAGCUGCAGCCCACCGCGGACCCCCCUGGUGCUCCAGGUUGGGUGAGUCUGAGCCGGAAGGGGUACGUGGUGGGCGCCCCUCAUUGUGGCUGGGGAGACCUCAUACCC | 0.498 |
| AGGGGAAAAACCAAAGUUAUUUGUUUUGCAUGGCUAAGCCAUUCUGUUAUCUCUGUAAAUACUGUGAUUUCUUUUUUAUUUUCUCUUUAGAAUUUUGUUAAAGAAAUUCU | 0.581 |
| GGAAGGAAGAAAUGCGUUUAGAUCUUGGAUGCAGACCUUUCAAAGGGUUAAAUGUAACCAUAUGGAUCAACCACAUGCACAUCCUUACUACAGAAUCCGUCCUUUCAUUU | 0.218 |
| AGCUCACCAACUGAGCUCUGGACUGGGGACUACCGCUGACCAGGAGGGAAGCCUGGAGCCGCACCCGACUCAGCCACUCUGCGUCACAUUCGUCCUGUACCUAGGACCGG | 0.327 |
| GAAGGACUGUGGCCUCUUCUGAGGGGCAGUGGACCUGGCAGGAUGGGCCACCGCUGACUGUGCUCCCCACUACCCCUGAGGAAGAUGGGGGCAAGAAGACCAUGUUCCCU | 0.232 |
| AUCUCCGAGUGAGGGAGGCCAGCCCCCACAUUUGUCCUCUGCAGGCUCAUUUUGUUGAGCGUCUGCUUUUAUCUUGACACUGAGCACGAGAGGGCACGGGUGGGUGCUCA | 1 |
| GUGCAAAUCAACCUGAUGAUUUUAAUUGGCAGGGGAUAAUGGUAGCUUUCAAAUCAUUGGAAGGGGAAAAGGAUGUCUUAGGAUUAUUUUCUUUCUUGUAGUAGUUGAGA | 0.336 |
| AAGCAGAAGGGAAGGAGUGUGGCGGAGGCUGGGAUGGAUUCCCUAAGCCAAGCCUGCCCAGCUAAUGAGCUGUUUGACGUUGAACUUGAAAGCUUUCCCCUCCCUCUAAG | 0.428 |
| GAUGGUUGCAGAAGCCACACAGGGUUAAAGUAAAUUCUGUCUUUGCCCACCAGGGGAUCAAACCCCUGCUGAUCUUGAUAUCAUAUUUCUGUCAUUUGCCAGUUGAUGGA | 0.328 |
| AUGGAAGAGAAGAGAAGAAUGAUAGGGAUGACCUGGGGUGGGGGGACAGCAAAACAUCUUAAAUGAUGACUGUAGUUAAUCAGAUGUGACCCCUCUAGGGCCCCUGGUUG | 0.863 |
| CAAUGUGUCAAAUAACGUAUUGAAUAUUUAUGAAAAGAGAGACUAUAUUUAUAUUCUUAGAUAGUUUGUUCCACAAUUUUUCAUUUCAUGCUUCCAUAUAUAUUACCCUG | 0.405 |

Study 4 — technique: protein-binding microarray; molecule type: double-stranded DNA, one strand shown; matrix: in vitro; concentration: 2200 nM top; setting: 60-bp whole probe; with: salmon DNA 0.4 mg/ml; relative to: random background probes; reading: higher = stronger binding; all sequences stand within: GCCTAGCAC … GTCTTGATTCGCTTGACGCTGCTG
Target: Interferon regulatory factor 7, full length, phosphomimetic (IRF7, Homo sapiens, UniProt Q92985, residues 1-503, S471D/S472D/S475D/S476D/S477D/S483D/S484D/S487D)
Target sequence (chain): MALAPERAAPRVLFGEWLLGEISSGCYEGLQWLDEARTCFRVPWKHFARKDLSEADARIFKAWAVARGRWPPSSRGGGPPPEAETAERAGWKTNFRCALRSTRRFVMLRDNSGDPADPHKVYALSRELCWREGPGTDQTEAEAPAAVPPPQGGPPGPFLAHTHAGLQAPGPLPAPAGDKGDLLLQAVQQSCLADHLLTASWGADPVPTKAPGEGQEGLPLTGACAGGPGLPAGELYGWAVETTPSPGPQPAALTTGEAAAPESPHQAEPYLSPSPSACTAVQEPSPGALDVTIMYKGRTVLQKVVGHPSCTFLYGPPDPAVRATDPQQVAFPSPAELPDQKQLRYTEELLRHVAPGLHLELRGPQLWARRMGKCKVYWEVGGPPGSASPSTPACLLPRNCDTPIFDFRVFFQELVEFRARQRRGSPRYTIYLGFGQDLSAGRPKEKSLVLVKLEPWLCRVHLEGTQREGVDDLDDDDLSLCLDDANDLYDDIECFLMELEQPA
| Oligonucleotide | fitted relative affinity |
| --- | --- |
| TCATTCCTGATCTCTGGTACTGTGCTA | 1.77 z-score |
| GACGATATCGGGTATCGAGATGTGCTA | 0.255 z-score |
| AAGGTATTATTTATTGTAGCGTGCTAG | -0.121 z-score |
| TCAAATTAGTGTTTTGCACTGTGCTAG | -0.0207 z-score |
| TTAGTTTTCAGTTTCGATTAGTGCTAG | 10.6 z-score |
| TCAAGTTTCTCCTTTGTACTGTGCTAG | 2.83 z-score |
| TTAGGACTGGACATTCGGTTAGTGCTA | 0.774 z-score |
| TTAGAACTGAGACTGGGTTAGTGCTAG | -0.608 z-score |
| GACGAACTGAGTATCGAGGCGTGCTAG | -0.191 z-score |
| GAAGGTTTCGACTTTCGGGACGTGCTA | 8.17 z-score |
| TTAGGTTTCGACTTTCGTTTAGTGCTA | 10.2 z-score |
| TAAGGACTGGACACTGGGTTAGTGCTA | -0.73 z-score |
| TACTGCTGGAGCTCAAGAGCGTGCTAG | -0.48 z-score |
| GACGGTATCGGGCTCGGGACGTGCTAG | -0.514 z-score |
| TTAGATCTCAGTATCGATAAGTGCTAG | -0.0504 z-score |
| TCATGTGTGTGTTTGTGACTGTGCTAG | 1.06 z-score |
| TTCGATATCGGGTATCGATTAGTGCTA | 0.846 z-score |
| GACGGTTTCGGGTCTGGGGACGTGCTA | 7.09 z-score |

For quick reference, copied from above (study 2):
| Oligonucleotide | fluorescence intensity [a.u.] |
| --- | --- |
| GAAATAATTAATTGGCATGCGACCTTGTTATTGTAG | 645 |
| CCTAACTACTATATAATCGTGATATAGCTTCGTACA | 607 |
| CCTAACTACTATAGCCAGGTGATATAGCTTCGTACA | 650 |
| CTACAGTAGCAACAACACGTTTTCTTGGATGATTTC | 586 |
| GAAATATGTAGTAATCACGTATGCAGACATTAATAG | 613 |
| GAACTTCATTTTCTTCACGCGCCATACTCGGATTAG | 625 |
